# Assay results from different studies.
# Lines come from different studies, so protocols differ.
Structure (SMILES),target or system,test,test system,conditions,scale,endpoint,result
COP(=S)(OC)Oc1ccc([N+](=O)[O-])c(C)c1,nanobody A4,ic-ELISA,,concentration not given,"reference: coumaphos IC50 over compound IC50, mass basis",cross-reactivity,< 1%
C[C@H]1CO[C@@H]2Cn3cc(C(=O)NCc4ccc(F)cc4F)c(=O)c(O)c3C(=O)N12,biotinylated rabbit IgG,,,"11-point dose-response, protein A and streptavidin binding",,maximum response,-2.47%
CCCCCCCCCC(=O)CC(=O)N[C@H]1CCOC1=O,ExpR2 (Pectobacterium carotovorum),"cellulase activity, antagonist","Pectobacterium carotovorum, single-ExpR2 strain","5 µM, 4 h, with: OHHL 5 µM",,inhibition,73%
CCCCCC/C=C\CCCCCCCC(=O)O,biotinylated rabbit IgG,,,"11-point dose-response, protein A and streptavidin binding",,maximum response,4.4%
N[C@@H](Cc1c[nH]c2ccc(Cl)cc12)C(=O)O,"tRNA methyltransferase TrmD, Escherichia coli",,"Escherichia coli, MG1655 tolC+ engineered, expressing TrmD, M9 medium with arabinose",,,MIC,12.5 µM
Cc1nnc(SCC2=C(C(=O)O)N3C(=O)[C@@H](NC(=O)Cn4cnnn4)[C@H]3SC2)s1,seizure ion channel panel,"ion current, inhibitor",,,lowest across channels,lowest IC30,> 30 µM
O=S(=O)(NCCNC/C=C/c1ccc(Br)cc1)c1cccc2cnccc12,PKA,inhibitor,mouse zygotes,"20 µM, Post hCG injection, 96 h, early embryonic development",,embryos at morula stage,26.3%
COc1cc2c(Oc3ccc4[nH]c(C)cc4c3F)ccnc2cc1OCC1(N)CC1,,,paediatric recurrent refractory sarcoma,8 mg/kg,,grade 1 or 2 Appendicitis,0%
Cc1ccc(-c2ccc(C)cn2)nc1,biotinylated rabbit IgG,,,"11-point dose-response, protein A and streptavidin binding",,maximum response,3.55%
O=C(Cc1ccccc1I)N[C@H]1CCOC1=O,ExpR2 (Pectobacterium carotovorum),"cellulase activity, antagonist","Pectobacterium carotovorum, single-ExpR2 strain","5 µM, 4 h, with: OHHL 5 µM",,inhibition,55%
CN1[C@@H]2CC[C@H]1C[C@@H](OC(=O)C(CO)c1ccccc1)C2 (stereo partly shown),seizure ion channel panel,"ion current, inhibitor",,,lowest across channels,lowest IC30,> 30 µM
CCOP(=S)(OCC)Oc1ccc2c(C)c(Cl)c(=O)oc2c1,nanobody A4,ic-ELISA,,concentration not given,"reference: coumaphos IC50 over compound IC50, molar basis",cross-reactivity,100%
C#Cc1nc(C(=O)N2CCC(NC(=O)c3cnc(-c4ccccc4)s3)(c3nc4ccccc4n3C)CC2)cs1,STING (human),inhibitor,primary human CD14+ monocytes,"2.5 µM, with: diABZI",,IFNβ induction,inhibited
C[N+](C)(C)CCOS(=O)(=O)[O-],SAR11_0797 protein (Candidatus Pelagibacter ubique),"thermal stabilisation, differential scanning fluorimetry",,,,ΔTm,8 °C
CN(C)C(=O)c1cc2cnc(Nc3ccc(-c4ccc5c(=O)cc(N6CCOCC6)oc5c4)cc3)nc2n1C1CCCC1,kinase panel,"binding, KINOMEscan",,"1.0 µM, of 468 kinases",,number of kinases inhibited,11
C[C@@H]1N=C(c2ccccc2F)c2cc(Br)ccc2-n2cnc(C(=O)O)c21,rat brain GABA-A receptor,[3H]flunitrazepam binding,rat brain extract,,,IC50,0.0251 µM
O=C(CCc1ccc(Br)cc1)N[C@H]1CCOC1=O,ExpR2 (Pectobacterium carotovorum),"cellulase activity, agonist","Pectobacterium carotovorum, single-ExpR2 strain","200 µM, 4 h",reference: OHHL,activation,8%
NC(CC1(C(=O)O)CC2OC(CO)C(O)C(N)C2O1)C(=O)O (stereo not shown),GluK1/GluK4 heteromer,"ion current, agonist, whole-cell patch-clamp",,30 µM,,current amplitude,< 10 pA
O=C(Cc1ccccc1)NC1CCOC1=O (stereo not shown),ExpR2 (Pectobacterium carotovorum),"cellulase activity, agonist","Pectobacterium carotovorum, single-ExpR2 strain","200 µM, 4 h",reference: OHHL,activation,21%
Oc1cc(Cl)ccc1Oc1ccc(Cl)cc1Cl,nanobody T2 (Bactrian camel),"ELISA, IC50-based",,"concentration not given, coating antigen T2/H3-BSA",,cross-reactivity,100%
CCN(CC)C(=O)/C(C#N)=C/c1cc(O)c(O)c([N+](=O)[O-])c1,biotinylated rabbit IgG,,,"11-point dose-response, protein A and streptavidin binding",,maximum response,-30.4%
CCOP(=S)(OCC)SCn1c(=O)oc2cc(Cl)ccc21,nanobody A4,"binding, ic-ELISA",,with: H1-OVA coating antigen,,IC50,2.87 µg/mL
O=C(Cc1ccc(Cl)cc1)N[C@H]1CCOC1=O,ExpR2 (Pectobacterium carotovorum),"cellulase activity, agonist","Pectobacterium carotovorum, single-ExpR2 strain","200 µM, 4 h",reference: OHHL,activation,29%
O=C(Nc1cccnn1)N1CCN([C@@H]2CCOc3cc(C(F)(F)F)ccc32)CC1,GABAA,Cerep BioPrint,,20 µM,,inhibition,-7%
CCOP(=S)(OCC)O/N=C(\C#N)c1ccccc1,nanobody A4,"binding, ic-ELISA",,with: H1-OVA coating antigen,,IC50,1.55 µg/mL
O=C(Cc1ccc2ccccc2c1)N[C@H]1CCOC1=O,ExpR2 (Pectobacterium carotovorum),"cellulase activity, antagonist","Pectobacterium carotovorum, single-ExpR2 strain","5 µM, 4 h, with: OHHL 5 µM",,inhibition,5%
Nc1c(Br)cc(Br)cc1CN[C@H]1CC[C@H](O)CC1,seizure ion channel panel,"ion current, inhibitor",,,lowest across channels,lowest IC30,2.99 µM
CCCCCCCCCCCCCCCC[n+]1ccn(Cc2ccccc2)c1C,biotinylated rabbit IgG,,,"11-point dose-response, protein A and streptavidin binding",,maximum response,19.8%
Cn1c(=O)c2[nH]cnc2n(C)c1=O,seizure ion channel panel,"ion current, inhibitor",,,lowest across channels,lowest IC30,> 30 µM
Nc1nc2c(ncn2[C@@H]2O[C@@H]3COP(=O)(O)O[C@H]4[C@@H](O)[C@H](n5cnc6c(N)ncnc65)O[C@@H]4COP(=O)(O)O[C@@H]2[C@@H]3O)c(=O)[nH]1,STING (human),Blue-Native PAGE,HeLa Kyoto with inducible STING,concentration not given,,persistence of STING oligomerization,≥ 2 h
CCOP(=S)(OCC)SCCSCC,nanobody A4,ic-ELISA,,concentration not given,"reference: coumaphos IC50 over compound IC50, mass basis",cross-reactivity,< 1%
COc1cc(Nc2ncc(F)c(Nc3ccc4c(n3)NC(=O)C(C)(C)O4)n2)cc(OC)c1OC,KA potassium channel,,,,,IC50,> 10 µM
C[C@H](CCC(=O)O)[C@H]1CC[C@H]2[C@@H]3CC[C@@H]4C[C@H](O)CC[C@]4(C)[C@H]3C[C@H](O)[C@]12C,biotinylated rabbit IgG,,,"11-point dose-response, protein A and streptavidin binding",,maximum response,25.9%
O=[N+]([O-])c1ccc(O)cc1,human UGT,glucuronidation,human liver microsomes,"200 µM, 60 min, with: FBI-COOH 50 µM",,inhibition,> 50%
CC(C)c1cccc(=O)c(O)c1,biotinylated rabbit IgG,,,"11-point dose-response, protein A and streptavidin binding",,maximum response,-21.4%
CCOP(=S)(OCC)Oc1nc(Cl)c(Cl)cc1Cl,nanobody A4,ic-ELISA,,concentration not given,"reference: coumaphos IC50 over compound IC50, mass basis",cross-reactivity,< 1%
O=C(Cc1cccc(Br)c1)N[C@H]1CCOC1=O,ExpR2 (Pectobacterium carotovorum),"cellulase activity, agonist","Pectobacterium carotovorum, single-ExpR2 strain","200 µM, 4 h",reference: OHHL,activation,97%
C[C@@H]1CCO[C@H]2Cn3cc(C(=O)NCc4ccc(F)cc4F)c(=O)c(O)c3C(=O)N12,biotinylated rabbit IgG,,,"11-point dose-response, protein A and streptavidin binding",,maximum response,-19.1%
O=C(Cc1cc(C(F)(F)F)cc(C(F)(F)F)c1)NC1CCOC1=O (stereo not shown),ExpR2 (Pectobacterium carotovorum),"cellulase activity, antagonist","Pectobacterium carotovorum, single-ExpR2 strain","5 µM, 4 h, with: OHHL 5 µM",,inhibition,16%
CCOP(=S)(OCC)Oc1ccc(Cl)cc1Cl,nanobody A4,"binding, ic-ELISA",,,,IC50,> 10 µM

# Repeated from above:
Structure (SMILES),target or system,test,test system,conditions,scale,endpoint,result
COc1cc(Nc2ncc(F)c(Nc3ccc4c(n3)NC(=O)C(C)(C)O4)n2)cc(OC)c1OC,KA potassium channel,,,,,IC50,> 10 µM
CCN(CC)C(=O)/C(C#N)=C/c1cc(O)c(O)c([N+](=O)[O-])c1,biotinylated rabbit IgG,,,"11-point dose-response, protein A and streptavidin binding",,maximum response,-30.4%
Cn1c(=O)c2[nH]cnc2n(C)c1=O,seizure ion channel panel,"ion current, inhibitor",,,lowest across channels,lowest IC30,> 30 µM
Oc1cc(Cl)ccc1Oc1ccc(Cl)cc1Cl,nanobody T2 (Bactrian camel),"ELISA, IC50-based",,"concentration not given, coating antigen T2/H3-BSA",,cross-reactivity,100%
